Literature values, collected from citations in different studies.
Compare with care: the assays were run in different laboratories. Values joined by “and” are separate records of one study, mostly repeats; a detail may differ. ± gives the spread as reported.
UGT1A1: UDP-glucuronosyltransferase 1A1 (UGT1A1, Homo sapiens, UniProt P22309)
Chain of UniProt P22309 (whole entry, looked up): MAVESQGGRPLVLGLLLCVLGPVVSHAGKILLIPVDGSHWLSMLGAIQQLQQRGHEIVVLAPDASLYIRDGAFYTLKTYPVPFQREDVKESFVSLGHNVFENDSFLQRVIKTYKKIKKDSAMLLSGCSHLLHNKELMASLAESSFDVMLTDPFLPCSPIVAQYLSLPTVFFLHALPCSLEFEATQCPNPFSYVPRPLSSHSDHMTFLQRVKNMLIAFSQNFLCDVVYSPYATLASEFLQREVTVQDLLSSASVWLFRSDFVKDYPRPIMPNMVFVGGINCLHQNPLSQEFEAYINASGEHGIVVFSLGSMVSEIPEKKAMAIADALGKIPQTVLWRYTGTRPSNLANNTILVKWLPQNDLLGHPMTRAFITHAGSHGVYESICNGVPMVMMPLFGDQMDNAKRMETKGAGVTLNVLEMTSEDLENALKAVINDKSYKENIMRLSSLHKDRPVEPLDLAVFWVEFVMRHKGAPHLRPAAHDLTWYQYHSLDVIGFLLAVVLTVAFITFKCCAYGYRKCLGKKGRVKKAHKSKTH
Chain of UniProt Q9GT49 (whole entry, looked up): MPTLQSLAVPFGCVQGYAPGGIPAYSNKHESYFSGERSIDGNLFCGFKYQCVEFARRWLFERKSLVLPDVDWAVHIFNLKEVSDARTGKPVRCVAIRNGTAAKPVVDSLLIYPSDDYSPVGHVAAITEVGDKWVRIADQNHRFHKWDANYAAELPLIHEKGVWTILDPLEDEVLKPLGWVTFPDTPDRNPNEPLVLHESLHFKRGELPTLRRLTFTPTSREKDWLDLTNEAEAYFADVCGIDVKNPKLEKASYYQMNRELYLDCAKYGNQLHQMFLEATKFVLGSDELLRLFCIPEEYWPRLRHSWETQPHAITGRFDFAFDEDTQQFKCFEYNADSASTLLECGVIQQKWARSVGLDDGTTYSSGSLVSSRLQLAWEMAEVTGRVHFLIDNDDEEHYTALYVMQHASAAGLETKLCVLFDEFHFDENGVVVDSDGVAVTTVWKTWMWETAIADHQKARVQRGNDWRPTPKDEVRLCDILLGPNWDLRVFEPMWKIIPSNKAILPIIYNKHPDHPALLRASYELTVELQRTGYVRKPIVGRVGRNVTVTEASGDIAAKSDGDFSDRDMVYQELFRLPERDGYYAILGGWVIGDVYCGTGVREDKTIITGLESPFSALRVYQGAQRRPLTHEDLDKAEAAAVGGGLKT
Chain of UniProt P40337 (whole entry, unmodified, looked up): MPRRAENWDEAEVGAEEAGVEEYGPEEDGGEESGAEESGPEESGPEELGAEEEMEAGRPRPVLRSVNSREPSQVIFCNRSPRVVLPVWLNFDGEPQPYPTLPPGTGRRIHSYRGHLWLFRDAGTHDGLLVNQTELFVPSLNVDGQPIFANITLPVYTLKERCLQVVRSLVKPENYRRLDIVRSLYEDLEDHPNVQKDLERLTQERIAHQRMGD
Chain of UniProt O15229 (whole entry, looked up): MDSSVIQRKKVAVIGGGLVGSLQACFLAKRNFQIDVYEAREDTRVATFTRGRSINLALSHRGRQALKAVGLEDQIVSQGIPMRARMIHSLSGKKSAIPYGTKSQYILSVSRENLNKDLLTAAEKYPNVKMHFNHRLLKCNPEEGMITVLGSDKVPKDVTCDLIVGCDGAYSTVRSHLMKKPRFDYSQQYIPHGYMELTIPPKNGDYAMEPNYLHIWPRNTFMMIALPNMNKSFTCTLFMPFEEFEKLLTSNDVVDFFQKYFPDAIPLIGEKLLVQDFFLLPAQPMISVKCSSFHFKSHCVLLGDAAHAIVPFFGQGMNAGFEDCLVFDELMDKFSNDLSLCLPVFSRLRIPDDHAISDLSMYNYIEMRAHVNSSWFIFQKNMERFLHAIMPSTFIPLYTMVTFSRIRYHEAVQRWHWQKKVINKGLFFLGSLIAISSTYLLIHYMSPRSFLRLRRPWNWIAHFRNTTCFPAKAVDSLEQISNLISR
Chain of UniProt Q9NZQ7 (whole entry, looked up): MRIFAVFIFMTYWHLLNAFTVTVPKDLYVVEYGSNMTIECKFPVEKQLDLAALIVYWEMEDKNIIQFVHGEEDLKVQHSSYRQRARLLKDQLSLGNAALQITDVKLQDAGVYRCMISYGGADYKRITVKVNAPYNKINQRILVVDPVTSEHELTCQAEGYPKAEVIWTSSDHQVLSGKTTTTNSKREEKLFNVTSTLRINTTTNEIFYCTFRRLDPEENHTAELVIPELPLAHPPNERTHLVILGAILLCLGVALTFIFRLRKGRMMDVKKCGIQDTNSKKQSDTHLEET
Chain of UniProt P35462 (whole entry, looked up): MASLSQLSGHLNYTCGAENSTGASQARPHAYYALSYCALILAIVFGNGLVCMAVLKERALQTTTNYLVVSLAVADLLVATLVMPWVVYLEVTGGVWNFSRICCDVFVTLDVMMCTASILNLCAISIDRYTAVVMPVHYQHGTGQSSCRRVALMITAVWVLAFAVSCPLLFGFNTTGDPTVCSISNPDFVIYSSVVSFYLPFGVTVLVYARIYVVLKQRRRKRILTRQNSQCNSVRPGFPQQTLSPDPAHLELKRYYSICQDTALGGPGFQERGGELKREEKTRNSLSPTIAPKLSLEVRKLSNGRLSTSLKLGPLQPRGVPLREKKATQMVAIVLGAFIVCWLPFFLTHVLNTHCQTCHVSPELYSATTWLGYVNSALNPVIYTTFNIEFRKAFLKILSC
Chain of UniProt P08908 (whole entry, looked up): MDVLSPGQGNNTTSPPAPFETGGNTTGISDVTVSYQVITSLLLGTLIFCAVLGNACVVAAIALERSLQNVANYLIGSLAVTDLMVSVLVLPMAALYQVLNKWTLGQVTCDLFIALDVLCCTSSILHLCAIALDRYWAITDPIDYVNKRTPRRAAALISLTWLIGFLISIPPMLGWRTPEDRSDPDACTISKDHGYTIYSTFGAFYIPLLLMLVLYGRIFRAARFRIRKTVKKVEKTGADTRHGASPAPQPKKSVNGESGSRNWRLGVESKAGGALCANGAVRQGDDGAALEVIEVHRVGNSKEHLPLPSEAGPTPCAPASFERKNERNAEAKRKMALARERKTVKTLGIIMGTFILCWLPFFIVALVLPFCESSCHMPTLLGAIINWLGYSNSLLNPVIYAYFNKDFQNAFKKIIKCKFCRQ
Chain of UniProt O60331 (whole entry, looked up): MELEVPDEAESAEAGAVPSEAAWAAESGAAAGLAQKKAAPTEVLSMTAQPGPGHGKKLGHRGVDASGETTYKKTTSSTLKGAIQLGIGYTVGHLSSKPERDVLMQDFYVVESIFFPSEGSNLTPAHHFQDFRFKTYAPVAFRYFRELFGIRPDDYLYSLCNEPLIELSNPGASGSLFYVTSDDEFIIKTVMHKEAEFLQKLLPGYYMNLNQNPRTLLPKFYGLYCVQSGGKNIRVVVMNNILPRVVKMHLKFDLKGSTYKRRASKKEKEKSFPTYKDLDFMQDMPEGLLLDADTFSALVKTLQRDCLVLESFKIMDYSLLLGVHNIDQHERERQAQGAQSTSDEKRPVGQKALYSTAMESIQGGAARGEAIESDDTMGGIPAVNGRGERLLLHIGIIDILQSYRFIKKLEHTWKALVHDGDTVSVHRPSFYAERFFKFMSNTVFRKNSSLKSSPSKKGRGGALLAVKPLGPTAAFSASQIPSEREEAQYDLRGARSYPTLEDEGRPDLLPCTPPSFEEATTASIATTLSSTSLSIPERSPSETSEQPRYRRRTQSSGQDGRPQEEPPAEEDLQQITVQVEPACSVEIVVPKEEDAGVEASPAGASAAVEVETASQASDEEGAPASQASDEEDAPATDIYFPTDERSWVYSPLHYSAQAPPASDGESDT
Chain of UniProt Q8IXJ6 (whole entry, looked up): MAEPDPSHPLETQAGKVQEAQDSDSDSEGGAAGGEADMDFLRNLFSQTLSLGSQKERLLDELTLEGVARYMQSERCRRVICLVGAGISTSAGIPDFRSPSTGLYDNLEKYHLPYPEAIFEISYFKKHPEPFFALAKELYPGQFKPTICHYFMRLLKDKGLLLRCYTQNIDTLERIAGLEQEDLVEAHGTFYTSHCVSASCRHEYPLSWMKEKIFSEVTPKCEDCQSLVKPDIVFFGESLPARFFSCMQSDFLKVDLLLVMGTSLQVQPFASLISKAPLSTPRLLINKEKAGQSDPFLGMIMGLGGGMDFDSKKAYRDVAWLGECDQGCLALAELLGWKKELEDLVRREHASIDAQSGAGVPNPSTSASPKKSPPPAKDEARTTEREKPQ

| SMILES | target or system | test | system | setting | scale | endpoint | value |
| --- | --- | --- | --- | --- | --- | --- | --- |
| CCC1C=C(C)C(O)C(C)CC(OC)C2OC(O)(C(=O)C(=O)N3CCCCC3C(=O)OC(C(C)=CC3CCC(O)C(OC)C3)C(C)C(O)CC1=O)C(C)CC2OC (stereo not shown) | calcineurin | – | – | concentration not given | – | phosphatase activity | no effect |
| Cc1c(COc2ccc(CN3CCCCC3C(=O)NCCCn3cc(CCCC(=O)NCCCC[C@@H]4NC(=O)[C@@H](Cc5ccc(O)cc5)NC(=O)[C@H](CC(=O)O)NC(=O)CNC(=O)[C@H](CCCNC(=N)N)NC4=O)nn3)cc2Br)cccc1-c1ccccc1 (stereo partly shown) | Programmed cell death 1 ligand 1 (CD274, Homo sapiens, UniProt Q9NZQ7) | degrader | MDA-MB-231 | – | – | Dmax | 70% |
| CNCCNC(=O)CN1C(=O)Cc2c([nH]c3ccc(Br)cc23)-c2ccc(Cl)cc21 | Trypanothione synthetase (Trypanosoma cruzi, UniProt Q9GT49) | enzyme activity | – | 30 µM | – | inhibition | 40.5 ± 5.9% |
| COc1cc(-c2cc(=O)c3ccc(OCCCn4c(Cl)nc5ccccc54)cc3o2)cc(OC)c1OC | HK-II, PFKP and PDK-1 | glycolytic enzyme level | MGC-803 | concentration not given | – | inhibition | inhibited |
| COc1ccc(Nc2nc(Nc3ccc(OCC[18F])cc3)ncc2Br)cc1 | – | – | S180 tumour-bearing mice | intravenous, 60 min | baseline: tumour over blood | tumour to tissue ratio | 1.67 |
| O=C(O)C1OC(Oc2cc(O)c3c(=O)c(O)c(-c4ccc(O)cc4)oc3c2)C(O)C(O)C1O (stereo not shown) | UGT1A1 | glucuronidation, substrate | Supersomes | – | – | Vmax | 1.38 ± 0.14 nmol/mg/min |
| O=c1ccc(OCCCN2CCCCC2)nn1-c1ccc(Cl)c(Cl)c1 | 5-hydroxytryptamine receptor 1A (HTR1A, Homo sapiens, UniProt P08908) | – | – | 1.0 µM | – | inhibition | 30.8 ± 4.1% |
| C[C@H](NC(=O)[C@@H](N)CC(=O)O)C(=O)N[C@@H](Cc1c[nH]cn1)C(=O)N[C@@H](CCCCN)C(N)=O | Cu2+ | – | – | concentration not given | – | Cu2+ binding affinity Ka | ~10 1.000e+14 M⁻¹ |
| Cc1ccc2c(c1)nc(CCN1C(=O)c3cccc4cccc(c34)C1=O)n2-c1ccncc1 | – | – | Sprague-Dawley rat | intravenous, 2.5 mg/kg | – | Cmax | 3500 ng/mL |
| Oc1c(C(c2ccccc2)c2c[nH]c3ccccc23)cc(Cl)c2cccnc12 (stereo not shown) | MRC-5 fibroblasts | cell viability | – | – | – | IC50 | 29.3 µM and 30.1 µM |
| Cc1ncsc1-c1ccc2c(c1)OCCOCCOC[C@@H](NC(=O)C[C@@H]1N=C(c3ccc(Cl)cc3)c3c(sc(C)c3C)-n3c(C)nnc31)COCCOCCOCC(=O)N[C@@H](C(C)(C)C)C(=O)N1C[C@H](O)C[C@H]1C(=O)NC2 | Bromodomain-containing protein 4, BD2 (BRD4, Homo sapiens, UniProt O60885) | isothermal titration calorimetry | – | BRD4 titrated into compound | – | ΔH | -6.25 kcal/mol |
| Cc1cc(O)c2c(c1O)C(=O)c1cc(O)cc(O)c1C2=O | D(3) dopamine receptor (DRD3, Homo sapiens, UniProt P35462) | agonist | – | 50 µM | – | activation | 44 ± 4.76% |
| Nc1ccccc1C(=O)CC(N)C(=O)O (stereo not shown) | Kynurenine 3-monooxygenase (KMO, Homo sapiens, UniProt O15229) | substrate | – | – | – | Km | 7 µM |
| CC1(N(CC(=O)O)CC(=O)O)CN(CC(=O)O)CCN(CC(=O)O)C1 | – | pH-potentiometry, refers to: logK3H | 0.15 M NaCl | 25 °C | – | protonation constant (log) | 3.77 |
| Cc1nc(-c2ccncc2)sc1C(=O)NC(C(=O)Nc1cccc(C(N)=O)c1)c1ccc(OCc2ccccc2)cc1 (stereo not shown) | Genome polyprotein, NS2B-NS3 protease (dengue virus type 2, UniProt P29990) | DENV-2 protease cell reporter | HeLa | 12.5 µM | – | inhibition | 78% |
| O=C(O)C1OC(Oc2ccc3oc(-c4ccc(O)cc4)c(O)c(=O)c3c2)C(O)C(O)C1O (stereo not shown) | UGT1A1 | glucuronidation, substrate | Supersomes | – | – | Vmax | 0.12 ± 0.01 nmol/mg/min |
| Cc1ncsc1-c1ccc(CNC(=O)[C@@H]2C[C@@H](O)CN2C(=O)[C@@H](NC(=O)COCCOCCOCCNC(=O)C[C@@H]2N=C(c3ccc(Cl)cc3)c3c(sc(C)c3C)-n3c(C)nnc32)C(C)(C)C)cc1 | von Hippel-Lindau disease tumor suppressor, with Elongin B/C (VHL, Homo sapiens, UniProt P40337) | isothermal titration calorimetry | – | VCB titrated into compound | – | ΔH | -7.7 kcal/mol |
| Cc1sc(-c2ccc(C(F)(F)F)cc2)nc1-c1nn[nH]c1C#N | – | – | ZDF rat | 10 mg/kg/day, 6 weeks | – | HbA1c at end of treatment | 8.44 ± 0.18% |
| O=C(O)C1OC(Oc2c(-c3ccc(O)cc3)oc3cc(O)ccc3c2=O)C(O)C(O)C1O (stereo not shown) | UGT1A1 | glucuronidation, substrate | Supersomes | – | – | Vmax | 0.68 ± 0.05 nmol/mg/min |
| CCCCCCCCCC(=O)NC1CCCC1 | Pseudomonas aeruginosa | elastase production | PAO1 | 250 µM | – | inhibition | 75% |
| CS(=O)(=O)Nc1ccc(-c2cncc(-c3cccc4cc[nH]c34)c2)cc1 | Phosphatidylinositol 4-phosphate 5-kinase type-1 gamma (PIP5K1C, Homo sapiens, UniProt O60331) | inhibitor | – | 1 µM | baseline: control | remaining activity | < 30% |
| O=C(O)C1OC(Oc2ccc(-c3oc4ccc(O)cc4c(=O)c3O)cc2)C(O)C(O)C1O (stereo not shown) | UGT1A1 | glucuronidation, substrate | Supersomes | – | – | Vmax | 0.34 ± 0.03 nmol/mg/min |
| Oc1c(Cc2c[nH]c3ccccc23)cc(Cl)c2cccnc12 | COLO 320 ABCB1-overexpressing | cell viability | – | – | – | IC50 | 4.87 µM |
| O=C(O)C1OC(Oc2c(-c3ccccc3)oc3ccccc3c2=O)C(O)C(O)C1O (stereo not shown) | UGT1A1 | glucuronidation, substrate | Supersomes | – | – | Vmax | 1.74 ± 0.03 nmol/mg/min |
| CNC(=S)NCCCC[C@H](NC(=O)OCc1ccccc1)C(=O)N[C@@H](Cc1c[nH]c2ccccc12)C(=O)NC(C)C | NAD-dependent protein deacetylase sirtuin-2 (SIRT2, Homo sapiens, UniProt Q8IXJ6) | enzyme activity, inhibitor | – | 10 µM | – | inhibition | 74% |

For quick reference, copied from above:
| SMILES | target or system | test | system | setting | scale | endpoint | value |
| --- | --- | --- | --- | --- | --- | --- | --- |
| CC1(N(CC(=O)O)CC(=O)O)CN(CC(=O)O)CCN(CC(=O)O)C1 | – | pH-potentiometry, refers to: logK3H | 0.15 M NaCl | 25 °C | – | protonation constant (log) | 3.77 |
| Nc1ccccc1C(=O)CC(N)C(=O)O (stereo not shown) | Kynurenine 3-monooxygenase (KMO, Homo sapiens, UniProt O15229) | substrate | – | – | – | Km | 7 µM |
